{"data": "Experimental data from different studies", "note": "Each numbered part is a random draw from the data of one study; scales do not carry over between parts."}
{"data": "Series 1", "target": "Histone acetyltransferase KAT6A, winged helix 1, GST fusion (KAT6A, Homo sapiens, UniProt Q92794, residues 1-85)", "technique": "protein binding microarray", "form": "double-stranded DNA, one strand shown", "medium": "in vitro", "tested at": "not given", "setting": "8-mer, flanks averaged, mean of 2 arrays, mostly near background", "reference": "not given", "reading": "higher = stronger binding", "Target sequence (chain)": "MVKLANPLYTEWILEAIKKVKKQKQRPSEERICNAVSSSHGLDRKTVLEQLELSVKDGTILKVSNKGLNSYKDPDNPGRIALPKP"}
{"Oligonucleotide": "ACCACTCC", "E-score": 0.0464}
{"Oligonucleotide": "GAGCCACA", "E-score": -0.174}
{"Oligonucleotide": "ATAAATCC", "E-score": -0.03}
{"Oligonucleotide": "ACTTGCAC", "E-score": -0.191}
{"Oligonucleotide": "AATGACTA", "E-score": -0.23}
{"Oligonucleotide": "GTACGTAA", "E-score": -0.0624}
{"Oligonucleotide": "ACGTAGCG", "E-score": 0.131}
{"Oligonucleotide": "TAGATACA", "E-score": -0.228}
{"data": "Series 2", "target": "Prothrombin, mature alpha-thrombin (F2, Homo sapiens, UniProt P00734)", "technique": "aptamer microarray, sandwich", "form": "DNA with 2'F-ANA", "medium": "in vitro", "tested at": "200 nM", "setting": "whole 15-mer aptamer, many near background", "together with": "Cy3 exosite-II aptamer, 400 nM", "reading": "higher = stronger binding", "oligonucleotide": "GGTTGGTGTGGTTGG"}
{"Modification": "2'F-ANA at 1 2 3 4 6 8 9 10 11 13", "mean fluorescence intensity": "54.1 a.u."}
{"Modification": "2'F-ANA at 3 4 6 9 15", "mean fluorescence intensity": "495 a.u."}
{"Modification": "2'F-ANA at 1 6 8 10 13", "mean fluorescence intensity": "51.5 a.u."}
{"Modification": "2'F-ANA at 6 7 8 9 10 11 13", "mean fluorescence intensity": "139 a.u."}
{"Modification": "2'F-ANA at 1 2 8 10 11 14", "mean fluorescence intensity": "47 a.u."}
{"Modification": "2'F-ANA at 2 7 8 14", "mean fluorescence intensity": "205 a.u."}
{"Modification": "2'F-ANA at 2 3 10 11 12 14", "mean fluorescence intensity": "305 a.u."}
{"data": "Series 3", "target": "Sal-like protein 4, full length isoform B (SALL4, Homo sapiens, UniProt Q9UJQ4-2, residues 1-616)", "technique": "universal PBM", "form": "double-stranded DNA, one strand shown", "medium": "in vitro", "tested at": "not given", "setting": "8-mer, flanks averaged, mean of replicates", "reading": "higher = stronger binding"}
{"Oligonucleotide": "TACTGATA", "E-score": 0.242}
{"Oligonucleotide": "ACTAGAAT", "E-score": 0.238}
{"Oligonucleotide": "ACTGATCT", "E-score": 0.0148}
{"Oligonucleotide": "TATTGAGA", "E-score": 0.287}
{"data": "Other studies, line by line"}
{"Substance": "PhoQ, residues 284 288 289 292 302 303 GTAMQF", "target": "PhoP, residues 12 14 15 18 19 SFCSL (Escherichia coli, UniProt P23836)", "assay": "Sort-seq, measured: YFP reporter", "system": "E. coli", "setting": "PhoQ-PhoP variant library, together with: 10 µM Mg2+", "how to read": "reference: high Mg2+ state, higher = stronger signaling", "measurement": "fold induction", "result": 5.31}
